Measurements of several laboratories.
Compare with care: the assays were run in different laboratories.
CDK17: Cyclin-dependent kinase 17 (CDK17, Homo sapiens, UniProt Q00537)
CDK17 with cyclin Y: Cyclin-dependent kinase 17, with cyclin Y (CDK17, Homo sapiens, UniProt Q00537)

Compound	target	test	system	conditions	how to read	endpoint	value
CNC(=O)C1CCN(c2cc(C)c(F)cc2NC(=O)c2ccc(-c3cc(O)ccc3C)c(C)c2)CC1	CDK17	binding, competition with immobilised ligand		1 µM		remaining binding	98%
CS(=O)(=O)Nc1cccc(-c2csc3cnc(Nc4ccc(N5CCN(CCCCCOc6cccc7c6C(=O)N(C6CCC(=O)NC6=O)C7=O)CC5)cc4)nc23)c1 (stereo not shown)	CDK17	probe labelling, inhibitor, KiNativ chemoproteomics	MOLT-4	1 µM		inhibition	58.7%
CN1C[C@@H](c2c[nH]c3cc(Br)ccc23)NC[C@@H]1c1c[nH]c2cc(Br)ccc12	Cyclin-dependent kinase 17, with p35 (CDK17, Homo sapiens, UniProt Q00537)	enzyme activity, inhibitor		10 µM		remaining activity	110%
COc1cc(Nc2nccc(-c3cnn4nc(OC)ccc34)n2)cc(C(F)(F)F)c1	CDK17	binding, competition with immobilised ligand		1 µM		remaining binding	82%
COc1c(Cl)cccc1Nc1c(-c2ccncc2C#C[C@@]2(C)CCCN2C(=O)/C=C/CN(C)C)[nH]c2c1C(=O)NCC2	CDK17	binding, competition with immobilised ligand		3 µM		remaining binding	100%
COc1cc(Nc2nc(C)cc(-c3cnn4nc(OC)ccc34)n2)cc(C(F)(F)F)c1	CDK17	inhibitor		1 µM, PCTK2	reference: control	remaining activity	100%
CCN1CCN(Cc2ccc(C(=O)Nc3ccc(C)c(NCc4cnc5[nH]ccc5c4OC)c3)cc2C(F)(F)F)CC1	CDK17	binding, competition with immobilised ligand		1 µM		remaining binding	100%
CCn1cc(C(=O)O)c(=O)c2c(N)c(F)c(NC3CCCCC3)cc21	CDK17 with cyclin Y	kinase activity		0.1 µM, added: ATP at Km		inhibition	27.6%
Nc1ncc(-c2cc(-c3cnn(CC(F)(F)F)c3)ncc2F)nc1C(=O)NC1CNCC(F)C1 (stereo not shown)	CDK17 with cyclin Y	enzyme activity		1 µM	reference: DMSO control	remaining activity	86.1%
CC(C)=CC1OC(C)(C)C2C=C3C(=O)C(Cl)=CC(O)C3C3C(O)C4OC4C(=O)C132 (stereo not shown)	CDK17	cell-free assay, competition with immobilised ligand		10 µM		remaining binding	79%
C=CC(=O)N1CCc2ccc(-n3c(=O)ccc4cnc5ccc(-c6cnn(C)c6)cc5c43)cc21	CDK17	KINOMEscan		1 µM	reference: DMSO control	remaining binding	100%
O=C(Cc1ccc(OCc2ccccc2)cc1)NC1(C(=O)O)CCN(C(=O)c2ccc(-c3cccc(Cl)c3)cc2)CC1	CDK17 with cyclin Y	enzyme activity, inhibitor		10 µM		activity vs control	125%
C=CC(=O)N1Cc2nc(-c3cc(-c4cc(Cl)cnc4Cl)c(F)cc3F)n(-c3ccncn3)c2C1	CDK17 with cyclin Y	cell-free assay, inhibitor		1 µM		inhibition	2.1%
Nc1ncc2c(n1)-c1c([nH]c3ccc(C4=CCOCC4)cc13)CCC2	CDK17	binding, competition with immobilised ligand		1 µM		remaining binding	100%
Cc1cnc2nc1Nc1cccc(c1)COC/C=C/COCc1cc(ccc1OCCN1CCOCC1)N2	CDK17	binding, competition with immobilised ligand		0.1 µM		remaining binding	100%
CN1CCN(Cc2ccc(-c3ccc(CO[C@H]4CCC[C@@H]4NC(=O)c4cc(-c5cnn(C)c5)cnc4N)cc3)cc2)CC1	CDK17 with cyclin Y	enzyme activity, inhibitor		0.1 µM		inhibition	18%
Cc1ccc(-c2c(/C=C(\C#N)C(=O)NC(C)C)n(CCCO)c3ncnc(N)c23)cc1	CDK17	cell-free assay, competition with immobilised ligand		1 µM		remaining binding	97%
C=CC(=O)N1CCCC(n2c(=O)c3ncccc3n(Cc3ccc(Oc4ccccc4)cc3)c2=O)C1 (stereo not shown)	CDK17	cell-free assay, competition with immobilised ligand		1 µM		remaining binding	92%
CNC1C[S+]2CC[S+]3CC[S+](C1)[Ru-4]321([N]=C=S)[n]2c3ccc(OC)cc3c3c4c(c5cc(F)c[n+]1c5c32)C(=O)NC4=O (stereo not shown)	CDK17	KinomeScan		0.1 µM	reference: untreated	remaining binding	100%

Excerpt of the above:
Compound	target	test	system	conditions	how to read	endpoint	value
C=CC(=O)N1CCc2ccc(-n3c(=O)ccc4cnc5ccc(-c6cnn(C)c6)cc5c43)cc21	CDK17	KINOMEscan		1 µM	reference: DMSO control	remaining binding	100%
